Measurements of several laboratories.
± gives the spread as reported.
F2: Prothrombin (F2, Homo sapiens, UniProt P00734)
Dihydrofolate reductase type 2: Dihydrofolate reductase type 2 (Escherichia coli, UniProt P00383)
uncharacterized protein: uncharacterized protein (Plasmodium falciparum, UniProt A0A5K1K7U1+Q8I261+Q8IJT1)
Proteasome component C5/PSMB5: Proteasome component C5/PSMB5 (Homo sapiens, UniProt P20618+P28074)
PLG: Plasminogen (PLG, Homo sapiens, UniProt P00747)
PSMB5: Proteasome Macropain subunit MB1 (PSMB5, Homo sapiens, UniProt P28074)
Protein AF-9 with DOT1L: Protein AF-9, with DOT1L (Homo sapiens, UniProt P42568)
CSNK1D: Casein kinase I isoform delta (CSNK1D, Homo sapiens, UniProt P48730)
RET: Proto-oncogene tyrosine-protein kinase receptor Ret (RET, Homo sapiens, UniProt P07949)

CCCC[C@H]1CN(c2cccc(OC(F)(F)F)c2)C(=O)CN1Cc1cncn1Cc1ccc(Br)cc1
IC50 (Protein farnesyltransferase (Rattus norvegicus, UniProt Q02293+Q04631); inhibitor): ~0.06 µM

O=C(Nc1ccn(Cc2ccc(O)cc2C(F)(F)F)n1)c1c(F)cccc1F
IC50 (P2X purinoceptor 7 (P2rx7, Rattus norvegicus, UniProt Q64663); antagonist): > 10 µM

CC1CC(C)CN(c2ccc(C=NNc3nc(-c4ccc([N+](=O)[O-])cc4)cs3)cc2)C1 (stereo not drawn)
IC50 (alpha-glucosidase; enzyme activity, inhibitor; together with: p-nitrophenyl-alpha-D-glucopyranoside): 17.2 µM

COc1cccc(CNC(=O)c2cn(Cc3ccc(Cn4ccccc4=O)cc3)nc2C2CC2)c1F
IC50 (F2): > 40 µM

CC1(C)NC(=O)N(c2ccc(F)c(Br)c2)C1=O
IC50 (Androgen receptor (AR, Homo sapiens, UniProt P10275); reporter gene, antagonist; LAPC4; 24 h, together with: DHT 10 nM): 9.7 µM

O=C(O)c1ccc2nc(-c3ccc(OCCC(O)COc4ccc(-c5nc6ccc(C(=O)O)cc6[nH]5)cc4Br)c(Br)c3)[nH]c2c1 (stereo not drawn)
IC50 (Dihydrofolate reductase type 2; enzyme activity; pH 7): 83 ± 22 µM

CCO
IC50 (CES1 (Homo sapiens, UniProt P23141); pH 7.4): 23000 µM

CC(C)C[C@H](NC(=O)[C@H](CCc1ccccc1)NC(=O)CN1CCOCC1)C(=O)N[C@@H](Cc1ccccc1)C(=O)N[C@@H](CC(C)C)C(=O)[C@@]1(C)CO1
IC50 (Proteasome subunit beta type-9 (Mus musculus, UniProt P28076); proteasome subunit activity; Ba/F3 BCR-ABL1 p210; 1 h pulse): 0.25 ± 0.237 µM

COCC(=O)N1CCC[C@H](C(=O)NCc2nc(-c3ccccc3)cs2)C1
IC50 (uncharacterized protein; Suc-LLVY-AMC): 0.13 ± 0.026 µM

CCOC(=O)/C=C/C(=O)N(CC(C)C)NC(=O)[C@H](CC(C)C)NC(=O)[C@H](CC(C)C)NC(=O)OCc1ccccc1
IC50 (Proteasome component C5/PSMB5; chymotrypsin-like activity, inhibitor; human 20S proteasome; together with: Suc-LLVY-AMC 100 µM): 3.7 ± 2.6 µM

COCc1nn(Cc2ccc(Cn3ccccc3=O)cc2)cc1C(=O)NCc1nccc(OC)c1C
IC50 (PLG): > 40 µM

CCOC(=O)c1ccc(NC(=O)c2cc3cc(S(N)(=O)=O)ccc3oc2=O)cc1
IC50 (alpha-glucosidase; inhibitor, colorimetric): 2440 µg/mL

Cc1ncc(C(=O)N[C@@H](CC2CCCC3CCCCC32)C(=O)N[C@@H](CC(C)C)C(=O)N[C@H](/C=C/S(C)(=O)=O)Cc2ccc(CN)cc2)s1 (stereo partly drawn)
IC50 (PSMB5; competitive ABPP; Raji cell lysate): 0.419 µM

Fc1ccc(Oc2ccc(Nc3ccc4ncc(OCC5CCNCC5)nc4c3)cc2)cc1
IC50 (Protein AF-9 with DOT1L; DOT1L binding, AlphaLISA): 1.5 ± 0.13 µM

COC[C@H](NC(=O)[C@H](CC(C)C)NC(=O)[C@H](Cc1ccccc1)N=[N+]=[N-])C(=O)N[C@H](/C=C/S(C)(=O)=O)Cc1ccc(CN)cc1
IC50 (PSMB5; competitive ABPP; Raji cell lysate): > 10 µM

CC[C@@H]1[C@H](F)C(=O)N[C@@H]1COc1nccc2cc(C(N)=O)c(OC)cc12
IC50 (CHEK2 (Homo sapiens, UniProt O96017); ATP-site probe binding, ActivX profiling; THP-1 cell lysate; Lys2 site): 2.6 µM

Fc1ccc(-c2nc(-c3c(F)cccc3F)[nH]c2-c2ccncc2)cc1
IC50 (CSNK1D; inhibitor): 0.0212 ± 0.0024 µM

CCN(CC)C(=O)c1ccc2nc(-c3ccc(OC)c(Br)c3)[nH]c2c1
IC50 (Dihydrofolate reductase type 2; enzyme activity; pH 7): > 160 µM

Fc1ccc(-c2nc(C3CCCCC3)[nH]c2-c2ccncc2)cc1
IC50 (CSNK1D; inhibitor): 0.0283 ± 0.0034 µM

c1ccc(COc2ccc(Nc3ccc4ncc(OCC5CCNCC5)nc4c3)cc2)cc1
IC50 (Protein AF-9 with DOT1L; DOT1L binding, AlphaLISA): 2.8 µM

Nc1nc(SCC(=O)Nc2ccc3c(c2)OCO3)[nH]c(=O)c1NC(=O)c1ccc(F)c(F)c1
IC50 (RET; kinase activity, inhibitor; replicate one, together with: 1 µM ATP, poly(Glu,Tyr)): 58.5 µM

COc1ccc(-c2csc(NN=Cc3ccc(N4CC(C)CC(C)C4)cc3)n2)cc1 (stereo not drawn)
IC50 (alpha-glucosidase; enzyme activity, inhibitor; together with: p-nitrophenyl-alpha-D-glucopyranoside): 30.2 µM

CCN(CCO)C(=O)c1ccc2nc(-c3ccc(OCCCOc4ccc(-c5nc6ccc(C(=O)N(CC)CCO)cc6[nH]5)cc4Br)c(Br)c3)[nH]c2c1
IC50 (Dihydrofolate reductase type 2; enzyme activity; pH 7): > 100 µM

COc1ccccc1-c1nc(-c2ccc(F)cc2)c(-c2ccncc2)[nH]1
IC50 (CSNK1D; inhibitor): 0.161 ± 0.0235 µM

CC(C)c1ccc(Nc2ccc3ncc(OCC4CCNCC4)nc3c2)cc1
IC50 (Protein AF-9 with DOT1L; DOT1L binding, AlphaLISA): 9.4 µM

Fc1ccc(-c2nc(-c3ccccc3Br)[nH]c2-c2ccncc2)cc1
IC50 (CSNK1D; inhibitor): 0.0132 ± 0.0026 µM

c1cc(N2CCCC2)ccc1-c1cc2ncc(OCC3CCNCC3)nc2cc1-c1ccc(N2CCCC2)cc1
IC50 (Protein AF-9, with AF4 (Homo sapiens, UniProt P42568); AlphaScreen): 0.6 ± 0.16 µM

Cc1cnc(-c2ccc(-c3ccc(NC(=O)Nc4c(F)cc(F)cc4F)cc3F)c3c2C(=O)NC3)[nH]1
IC50 (RET; enzyme activity, inhibitor, mobility shift; together with: ATP 1 mM): 0.228 µM

COc1ccc2c(=O)[nH]c3c(nnn3Cc3ccc(C)cc3)c2c1
IC50 (PARP10 (Homo sapiens, UniProt Q53GL7)): 0.0112 µM

[Fe+2].c1ccc(CN(CCN(Cc2ccccn2)Cc2ccccn2)Cc2ccccn2)cc1
IC50 (PSMB5; chymotrypsin-like activity, inhibitor, purified 20S proteasome; 30 min, pH 7.4, 37 °C, together with: 20 µM Suc-LLVY-AMC): 4 µM

CCn1c(-c2nc3ccc(C(=O)N4CCCC(N)C4)cc3n2C)cc2ccccc21 (stereo not drawn)
IC50 (SLCO1B1 (Homo sapiens, UniProt Q9Y6L6); transport, inhibitor, imaging): > 50.1 µM

COc1ccnc(CNC(=O)c2cn(Cc3ccc(Cn4ccccc4=O)cc3)nc2C2CC2)c1F
IC50 (F2): 35 µM

CC(=O)C(=O)N(CC(C)C)NC(=O)[C@H](Cc1ccccc1)NC(=O)[C@H](CC(C)C)NC(=O)[C@H](CCc1ccccc1)NC(=O)OCc1ccccc1
IC50 (Proteasome component C5/PSMB5; β5 chymotrypsin-like activity, inhibitor; together with: Suc-LLVY-AMC 100 µM): 5.4 ± 1 µM

COc1ccc([N+](=O)[O-])cc1C(=O)Nc1ccc(OCCF)cc1
IC50 (Peroxisome proliferator-activated receptor gamma, with RXR (PPARG, Homo sapiens, UniProt P37231); reporter gene, antagonist, PPRE-TK-luciferase; transfected HepG2; 24 h, together with: GW1929): > 2 µM

CC(C)C[C@H](NC(=O)[C@H](CCc1ccccc1)NC(=O)OCc1ccccc1)C(=O)N[C@@H](Cc1ccccc1)C(=O)NN(CC(C)C)C(=O)/C=C/C(=O)OCc1ccccc1
IC50 (Proteasome component C5/PSMB5; chymotrypsin-like activity, inhibitor; human 20S proteasome; together with: Suc-LLVY-AMC 100 µM): 0.9 ± 0.3 µM

Cc1cnn(Cc2ccc(Cn3cc(C(=O)NCc4ccc5c(N)nccc5c4)cn3)cc2)c1
IC50 (PLG): > 40 µM

Fc1ccc(-c2nc(-c3ccccc3)[nH]c2-c2ccncc2)cc1
IC50 (CSNK1D; inhibitor): 0.284 ± 0.059 µM

COc1ccc(NC(=O)Nc2ccccc2-c2nc(-c3ccoc3)n[nH]2)cc1
IC50 (RET; kinase activity, inhibitor; replicate three, together with: 1 µM ATP, poly(Glu,Tyr)): 36.7 µM

COC(=O)c1ccc2nc(-c3ccc(OCCCNCc4ccccc4)c(Br)c3)[nH]c2c1
IC50 (Dihydrofolate reductase type 2; enzyme activity; pH 7): > 30 µM

CCc1oc2ccccc2c1C(=O)c1cc(I)c(O)c(I)c1
IC50 (Cytochrome P450 2E1 (CYP2E1, Homo sapiens, UniProt P05181); p-nitrophenol hydroxylation; baculosomes; 10 min): 0.03 µM

COc1ccc([N+](=O)[O-])cc1-c1nc(-c2ccc(F)cc2)c(-c2ccncc2)[nH]1
IC50 (CSNK1D; inhibitor): 0.0519 ± 0.0064 µM

COc1cc(-c2cc(C(C)=O)n3ccccc23)c(OC)cc1Cn1ccnc1
IC50 (BRD9 (Homo sapiens, UniProt Q9H8M2); inhibitor): 0.0053 µM

CC(C)C[C@H](NC(=O)[C@H](CC(C)C)NC(=O)[C@H](Cc1ccccc1)NC(=O)CN=[N+]=[N-])C(=O)N[C@H](/C=C/S(C)(=O)=O)Cc1ccc(CN)cc1
IC50 (PSMB5; competitive ABPP; Raji cell lysate): 1.14 µM

N#Cc1ccc2nc(Nc3ccc(N4CCOCC4)c(Cl)c3)[nH]c2c1
IC50 (CSNK1D; NanoBRET tracer K8 binding; intact cells): > 30 µM

COCC(=O)N1CCC[C@H](C(=O)NCc2nc(-c3ccc(C#N)cc3)cs2)C1
IC50 (uncharacterized protein; Suc-LLVY-AMC): 0.042 ± 0.01 µM

COc1cc(/C=N/n2c(C)nc3ccc(C)cc3c2=O)cc([N+](=O)[O-])c1O
IC50 (Phospholipase A2, membrane associated (Homo sapiens, UniProt P14555); enzyme activity, inhibitor, colorimetric): 30.1 ± 1.14 µM

c1ccc(Oc2ccc(Nc3ccc4ncc(OCC5CCNCC5)nc4c3)cc2)cc1
IC50 (Protein AF-9 with DOT1L; DOT1L binding, AlphaLISA): 1.2 ± 0.22 µM

CC(C)C[C@H](NC(=O)[C@H](Cc1ccccc1)N=[N+]=[N-])C(=O)N[C@@H](CO)C(=O)N[C@H](/C=C/S(C)(=O)=O)Cc1ccc(CN)cc1
IC50 (PSMB5; competitive ABPP; Raji cell lysate): 5.53 µM

CC(C)N(CCC(=O)c1ccc2ccccc2c1)Cc1ccccc1
IC50 (TGM2 (Homo sapiens, UniProt P21980); enzyme activity, inhibitor, BP incorporation; together with: no DTT, no Triton): 0.01 ± 0.01 µM

Nc1nc2c(ncn2[C@@H]2O[C@H](COP(=O)(O)OP(=O)(O)NP(=O)(O)O)[C@@H](O)[C@H]2O)c(=O)[nH]1
IC50 (mRNA 5′-triphosphatase (Plasmodium falciparum, UniProt C0H484); GTP hydrolysis, inhibitor, fluorescent phosphate sensor): 15.7 µM

COc1ccc(C[C@H](NC(=O)[C@H](C)NC(=O)CN2CCOCC2)C(=O)N[C@@H](CCC2CCCCC2)C(=O)[C@@]2(C)CO2)cc1
IC50 (PSMB5; inhibitor, competition; RPMI-8226): > 10 µM

A few entries again:
Cc1ncc(C(=O)N[C@@H](CC2CCCC3CCCCC32)C(=O)N[C@@H](CC(C)C)C(=O)N[C@H](/C=C/S(C)(=O)=O)Cc2ccc(CN)cc2)s1 (stereo partly drawn)
IC50 (PSMB5; competitive ABPP; Raji cell lysate): 0.419 µM

Fc1ccc(Oc2ccc(Nc3ccc4ncc(OCC5CCNCC5)nc4c3)cc2)cc1
IC50 (Protein AF-9 with DOT1L; DOT1L binding, AlphaLISA): 1.5 ± 0.13 µM

COC[C@H](NC(=O)[C@H](CC(C)C)NC(=O)[C@H](Cc1ccccc1)N=[N+]=[N-])C(=O)N[C@H](/C=C/S(C)(=O)=O)Cc1ccc(CN)cc1
IC50 (PSMB5; competitive ABPP; Raji cell lysate): > 10 µM
